Measured values pooled from the literature.
A part holds a random share of what one study measured. “And” joins repeats or separate records; there may be more than shown.

Sample 1 — tested at: 1 µM
SMILES: C=CC(=O)N1CCC([C@@H]2CCNc3c(C(N)=O)c(-c4ccc(Oc5ccccc5)cc4)nn32)CC1
Dual serine/threonine and tyrosine protein kinase (DSTYK, Homo sapiens, UniProt Q6XUX3); enzyme activity, inhibitor — inhibition: 40%.
cAMP-dependent protein kinase catalytic subunit PRKX (PRKX, Homo sapiens, UniProt P51817); enzyme activity, inhibitor — inhibition: 1%.
For Serine/threonine-protein kinase 3 (STK3, Homo sapiens, UniProt Q13188); enzyme activity, inhibitor: inhibition read 21%.
For TGF-beta receptor type-1 (TGFBR1, Homo sapiens, UniProt P36897); cell-free assay: inhibition read 6%.
Tyrosine-protein kinase Yes (YES1, Homo sapiens, UniProt P07947); enzyme activity, inhibitor — inhibition: 63%.
It gave 15% for inhibition (Ephrin type-A receptor 7 (EPHA7, Homo sapiens, UniProt Q15375); cell-free assay).
The inhibition was 23% (Cyclin-dependent kinase 19 (CDK19, Homo sapiens, UniProt Q9BWU1); inhibitor).
The inhibition was 17% (Serine/threonine-protein kinase VRK2 (VRK2, Homo sapiens, UniProt Q86Y07); enzyme activity, inhibitor).
Ribosomal protein S6 kinase alpha-1, kinase domain 2 (RPS6KA1, Homo sapiens, UniProt Q15418); inhibitor — inhibition: 12%.

Sample 2 — method: competition with immobilised ligand; tested at: 1 µM
Structure (SMILES): CCc1ccccc1C(=O)Nc1n[nH]c2c(C)c(F)c(C3C(C#N)=C(C)N(C)C(C)=C3C#N)cc12
The remaining binding was 100% (Leucine-rich repeat serine/threonine-protein kinase 2 (LRRK2, Homo sapiens, UniProt Q5S007); cell-free assay).
For Tyrosine-protein kinase Fgr (FGR, Homo sapiens, UniProt P09769); cell-free assay: remaining binding read 51%.
The remaining binding was 43% (Rhodopsin kinase GRK1 (GRK1, Homo sapiens, UniProt Q15835); cell-free assay).
For Myosin light chain kinase, smooth muscle (MYLK, Homo sapiens, UniProt Q15746); binding: remaining binding read 55%.
For Serine/threonine-protein kinase PLK4 (PLK4, Homo sapiens, UniProt O00444); cell-free assay: remaining binding read 100%.
For Phosphatidylinositol 4,5-bisphosphate 3-kinase catalytic subunit alpha isoform (PIK3CA, Homo sapiens, UniProt P42336, M1043I); cell-free assay: remaining binding read 75%.
It gave 100% for remaining binding (Serine/threonine-protein kinase tousled-like 2 (TLK2, Homo sapiens, UniProt Q86UE8); cell-free assay).
The remaining binding was 2.9% (Ribosomal protein S6 kinase alpha-6, N-terminal kinase domain (RPS6KA6, Homo sapiens, UniProt Q9UK32); cell-free assay).
For Calcium/calmodulin-dependent protein kinase type 1G (CAMK1G, Homo sapiens, UniProt Q96NX5); cell-free assay: remaining binding read 90%.
Muscle, skeletal receptor tyrosine-protein kinase (MUSK, Homo sapiens, UniProt O15146); cell-free assay — remaining binding: 83%.
It gave 83% for remaining binding (Mast/stem cell growth factor receptor Kit (KIT, Homo sapiens, UniProt P10721, V559D); cell-free assay).
Tyrosine-protein kinase Lck (LCK, Homo sapiens, UniProt P06239); binding — remaining binding: 100%.
Serine/threonine-protein kinase DCLK1 (DCLK1, Homo sapiens, UniProt O15075); cell-free assay — remaining binding: 87%.
It gave 96% for remaining binding (Dual specificity testis-specific protein kinase 1 (TESK1, Homo sapiens, UniProt Q15569); cell-free assay).
For Tyrosine-protein kinase ZAP-70 (ZAP70, Homo sapiens, UniProt P43403); cell-free assay: remaining binding read 100%.
The remaining binding was 89% (Serine/threonine-protein kinase 17A (STK17A, Homo sapiens, UniProt Q9UEE5); cell-free assay).
For Phosphatidylinositol 4,5-bisphosphate 3-kinase catalytic subunit alpha isoform (PIK3CA, Homo sapiens, UniProt P42336, I800L); cell-free assay: remaining binding read 100%.
Receptor-type tyrosine-protein kinase FLT3 (FLT3, Homo sapiens, UniProt P36888, F691L/ITD); cell-free assay — remaining binding: 11%.
Tyrosine-protein kinase FRK (FRK, Homo sapiens, UniProt P42685); cell-free assay — remaining binding: 100%.
Cyclin-dependent kinase-like 5 (CDKL5, Homo sapiens, UniProt O76039); binding — remaining binding: 100%.
It gave 70% for remaining binding (Serine/threonine-protein kinase Chk2 (CHEK2, Homo sapiens, UniProt O96017); cell-free assay).
Eukaryotic translation initiation factor 2-alpha kinase 1 (EIF2AK1, Homo sapiens, UniProt Q9BQI3); cell-free assay — remaining binding: 100%.
It gave 58% for remaining binding (TGF-beta receptor type-1 (TGFBR1, Homo sapiens, UniProt P36897); cell-free assay).
Protein kinase C iota type (PRKCI, Homo sapiens, UniProt P41743); cell-free assay — remaining binding: 82%.
It gave 94% for remaining binding (Mitogen-activated protein kinase kinase kinase 12 (MAP3K12, Homo sapiens, UniProt Q12852); cell-free assay).

Sample 3 — effect on: enzyme activity; mode: inhibitor; tested at: 0.5 µM; relative to: control
Target: Cyclin-dependent kinase 5, with p25 (CDK5, Homo sapiens, UniProt Q00535)
For `COc1ccc(OC)c2c(=S)c3ccccc3[nH]c12`, the remaining activity was 85.4%.
With `OCC(O)CCON=C1C(c2c(O)[nH]c3ccccc23)=Nc2ccccc21` (stereo not drawn) the remaining activity was 16.4%.
For `CCOC(=O)c1c(C)[nH]c(/C=C2\C(=O)Nc3ccccc32)c1C`, the remaining activity was 92.7%.
`N#CC(C#N)=C(N)/C(C#N)=C/c1ccc(O)cc1` has a remaining activity of 97.6%.
For `O=C(CCCc1ccc(-c2ccccc2F)cc1)Nc1ccc(O)cc1`, the remaining activity was 94.6%.
The remaining activity of `Cc1nc(-c2ccccc2)c(-c2ccncc2)o1` is reported as 97%.
With `Nc1[nH]nc2nc3ccccc3nc12` the remaining activity was 85.4%.
`Nc1ncnc2n[nH]c(Nc3ccc(F)cc3)c12` gave a remaining activity of 82.5%.
`Cn1sc(=O)n(Cc2ccccc2)c1=O` has a remaining activity of 103%.
The remaining activity of `COc1ccc(CNC(=O)Nc2ncc([N+](=O)[O-])s2)cc1` is reported as 97.7%.
`COc1cc2nccc(Oc3ccc(NC(=S)NC(=O)c4ccccc4C)cc3)c2cc1OC` gave a remaining activity of 93.2%.
The remaining activity of `O=C(Nc1cccc(Nc2cc(Nc3cccc(C(F)(F)F)c3)ncn2)c1)C1CC1` is reported as 99.5%.
`COc1cc2ncnc(Nc3ccc(F)c(Cl)c3)c2cc1OCCCN1CCOCC1` has a remaining activity of 95.4%.
`C#Cc1cccc(Nc2ncnc3cc(OCCOC)c(OCCOC)cc23)c1` has a remaining activity of 90.5%.
The remaining activity of `O=C(O)c1ccc2c3c1cccc3c(=O)n1c3ccccc3nc21` is reported as 80.6%.

Sample 4 — cell line: mouse MPNST tumor cells; method: high-content immunofluorescence imaging; measured: nuclear SOX9; tested at: 10 µM; time: 12 h; setting: mean of 2 replicates; relative to: DMSO control; direction: higher = more nuclear SOX9
Under “nuclear SOX9 intensity”, `O=C(Nc1ccc(Cl)cc1)Nc1cccc(-c2cccc(N3CCCC3)n2)c1` is recorded as 109 % of DMSO.
Under “nuclear SOX9 intensity”, `Cc1c(C(N)=O)nc2n1C[C@@H](COc1ccc(C(C)(C)C)cc1)O2` is recorded as 103 % of DMSO.
Under “nuclear SOX9 intensity”, `c1ccc(C(O[C@@H]2CCCN(CCc3ccc4c(c3)OCO4)C2)c2ccccc2)cc1` is recorded as 110 % of DMSO.
Under “nuclear SOX9 intensity”, `CC(C)(C)NC[C@H](O)COc1cccc2c1CCCC2=O` is recorded as 103 % of DMSO.
`O=C(CC12CC3CC(CC(C3)C1)C2)Nc1cccc2nc(NCCNCCO)ccc12` — result for “nuclear SOX9 intensity”: 147 % of DMSO.
For `FCc1ccc(OCCOc2ccc(Cl)cc2Cl)c(Cl)n1`, “nuclear SOX9 intensity” read 119 % of DMSO.
`COc1cc(Oc2ccnc3cc(OC)c(OC)cc23)ccc1NC(=O)NC(C)c1nccs1` (stereo not drawn) — result for “nuclear SOX9 intensity”: 109 % of DMSO.
`CC1(C)CCC(C)(C)c2cc(C3(c4ccc5cc(C(=O)O)ccc5c4)SCCS3)ccc21`: “nuclear SOX9 intensity” 119 % of DMSO.
Under “nuclear SOX9 intensity”, `COc1cc(Br)c(S(=O)(=O)Nc2ccc(C(F)(F)F)c(OC3CCN(C)C3)c2)cc1OC` (stereo not drawn) is recorded as 115 % of DMSO.
`Cc1ccc(S(=O)(=O)c2c(C)cc(C)cc2C)cc1`: “nuclear SOX9 intensity” 108 % of DMSO.
`CC(C)(O)c1ccccc1CC[C@@H](SCC1(CC(=O)O)CC1)c1cccc(/C=C/c2ccc3ccc(Cl)cc3n2)c1` — result for “nuclear SOX9 intensity”: 90.7 % of DMSO and 102 % of DMSO.
`C[C@H](NCc1ccc(OCc2ccccc2F)cc1)C(N)=O` — result for “nuclear SOX9 intensity”: 112 % of DMSO.
`COc1cccc(NC(=O)/C=C/c2ccc(Cl)cc2)c1`: “nuclear SOX9 intensity” 125 % of DMSO.
Under “nuclear SOX9 intensity”, `COc1ccc2[nH]c(-c3ccccc3)c(CCNC(C)=O)c2c1` is recorded as 95.9 % of DMSO.

Some of these lines once more (sample 2):
The remaining binding was 2.9% (Ribosomal protein S6 kinase alpha-6, N-terminal kinase domain (RPS6KA6, Homo sapiens, UniProt Q9UK32); cell-free assay).
For Calcium/calmodulin-dependent protein kinase type 1G (CAMK1G, Homo sapiens, UniProt Q96NX5); cell-free assay: remaining binding read 90%.
Muscle, skeletal receptor tyrosine-protein kinase (MUSK, Homo sapiens, UniProt O15146); cell-free assay — remaining binding: 83%.
It gave 83% for remaining binding (Mast/stem cell growth factor receptor Kit (KIT, Homo sapiens, UniProt P10721, V559D); cell-free assay).
